# Experimental data of several laboratories.
# Every numbered part comes from another study and shows a few of its results, in no order. Values joined by “and” are separate records of one study, mostly repeats; a detail may differ.
# Chain of UniProt P41240 (whole entry, looked up): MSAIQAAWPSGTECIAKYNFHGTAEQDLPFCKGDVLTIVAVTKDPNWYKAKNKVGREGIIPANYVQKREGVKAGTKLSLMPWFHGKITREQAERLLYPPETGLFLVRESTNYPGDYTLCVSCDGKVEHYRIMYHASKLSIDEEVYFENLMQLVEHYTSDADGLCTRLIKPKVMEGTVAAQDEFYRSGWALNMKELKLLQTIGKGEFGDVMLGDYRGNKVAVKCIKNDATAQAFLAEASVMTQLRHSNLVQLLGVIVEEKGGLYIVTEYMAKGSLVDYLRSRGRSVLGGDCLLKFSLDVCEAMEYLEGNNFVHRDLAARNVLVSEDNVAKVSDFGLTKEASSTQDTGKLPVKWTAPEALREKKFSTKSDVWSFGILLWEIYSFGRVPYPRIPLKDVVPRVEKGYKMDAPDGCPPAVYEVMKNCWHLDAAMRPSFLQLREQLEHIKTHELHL
# Chain of UniProt P00519 (whole entry, unmodified, looked up): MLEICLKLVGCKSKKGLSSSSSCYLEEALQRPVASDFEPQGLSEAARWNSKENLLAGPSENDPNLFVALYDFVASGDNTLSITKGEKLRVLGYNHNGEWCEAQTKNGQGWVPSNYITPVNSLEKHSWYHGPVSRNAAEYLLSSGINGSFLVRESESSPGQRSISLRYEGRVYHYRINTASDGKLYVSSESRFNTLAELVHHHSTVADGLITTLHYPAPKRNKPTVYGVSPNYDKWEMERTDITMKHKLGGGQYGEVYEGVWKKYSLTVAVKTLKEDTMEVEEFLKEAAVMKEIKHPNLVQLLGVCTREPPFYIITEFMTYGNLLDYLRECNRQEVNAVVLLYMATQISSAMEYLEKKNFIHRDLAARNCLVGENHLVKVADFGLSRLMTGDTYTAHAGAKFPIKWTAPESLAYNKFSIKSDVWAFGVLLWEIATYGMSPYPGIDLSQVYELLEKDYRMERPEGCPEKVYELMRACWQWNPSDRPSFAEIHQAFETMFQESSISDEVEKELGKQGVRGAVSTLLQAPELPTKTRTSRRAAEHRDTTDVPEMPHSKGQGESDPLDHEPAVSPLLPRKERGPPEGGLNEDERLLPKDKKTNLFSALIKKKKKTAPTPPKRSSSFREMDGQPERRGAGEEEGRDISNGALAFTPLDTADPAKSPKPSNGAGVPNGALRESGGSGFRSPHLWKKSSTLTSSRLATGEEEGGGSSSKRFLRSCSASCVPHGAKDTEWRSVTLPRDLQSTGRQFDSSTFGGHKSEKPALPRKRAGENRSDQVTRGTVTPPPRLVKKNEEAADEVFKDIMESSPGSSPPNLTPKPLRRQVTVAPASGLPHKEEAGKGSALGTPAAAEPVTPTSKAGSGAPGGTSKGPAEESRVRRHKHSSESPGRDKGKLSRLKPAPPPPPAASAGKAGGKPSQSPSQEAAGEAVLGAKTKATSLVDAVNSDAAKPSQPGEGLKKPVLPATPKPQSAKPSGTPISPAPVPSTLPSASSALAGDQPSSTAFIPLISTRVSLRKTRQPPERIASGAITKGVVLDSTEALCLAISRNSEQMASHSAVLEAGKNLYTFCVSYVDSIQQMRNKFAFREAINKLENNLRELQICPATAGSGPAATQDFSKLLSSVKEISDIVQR
# Chain of UniProt P27448 (whole entry, looked up): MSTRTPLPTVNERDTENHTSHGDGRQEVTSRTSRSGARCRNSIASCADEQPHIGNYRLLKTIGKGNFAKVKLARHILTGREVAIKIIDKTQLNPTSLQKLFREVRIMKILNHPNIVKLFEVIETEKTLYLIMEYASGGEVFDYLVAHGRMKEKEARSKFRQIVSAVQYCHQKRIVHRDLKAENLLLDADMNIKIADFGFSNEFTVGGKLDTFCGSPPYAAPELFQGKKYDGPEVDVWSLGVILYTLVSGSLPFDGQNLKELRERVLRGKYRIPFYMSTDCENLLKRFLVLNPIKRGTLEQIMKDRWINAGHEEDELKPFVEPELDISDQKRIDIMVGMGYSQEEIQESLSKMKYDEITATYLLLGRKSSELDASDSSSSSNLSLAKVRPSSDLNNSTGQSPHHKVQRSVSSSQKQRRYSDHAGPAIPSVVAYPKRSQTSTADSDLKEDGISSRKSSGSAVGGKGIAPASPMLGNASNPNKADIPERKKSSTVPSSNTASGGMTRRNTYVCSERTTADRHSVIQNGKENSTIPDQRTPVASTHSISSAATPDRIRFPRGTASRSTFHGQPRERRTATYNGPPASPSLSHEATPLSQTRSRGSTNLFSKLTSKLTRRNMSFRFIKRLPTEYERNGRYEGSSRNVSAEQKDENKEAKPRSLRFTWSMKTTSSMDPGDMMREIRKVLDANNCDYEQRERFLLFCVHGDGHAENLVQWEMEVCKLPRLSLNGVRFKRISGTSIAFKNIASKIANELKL
# Chain of UniProt Q9UIK4 (whole entry, looked up): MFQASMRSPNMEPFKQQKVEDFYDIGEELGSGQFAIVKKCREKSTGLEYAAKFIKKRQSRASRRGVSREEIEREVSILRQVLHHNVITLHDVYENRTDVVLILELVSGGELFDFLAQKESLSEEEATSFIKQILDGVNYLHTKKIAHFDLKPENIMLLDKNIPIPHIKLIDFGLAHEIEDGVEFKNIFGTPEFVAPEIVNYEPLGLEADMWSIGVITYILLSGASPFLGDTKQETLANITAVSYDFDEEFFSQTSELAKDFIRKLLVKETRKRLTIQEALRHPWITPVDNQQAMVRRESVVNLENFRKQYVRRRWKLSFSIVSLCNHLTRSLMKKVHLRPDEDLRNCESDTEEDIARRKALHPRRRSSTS
# Chain of UniProt Q9Y2K2 (whole entry, looked up): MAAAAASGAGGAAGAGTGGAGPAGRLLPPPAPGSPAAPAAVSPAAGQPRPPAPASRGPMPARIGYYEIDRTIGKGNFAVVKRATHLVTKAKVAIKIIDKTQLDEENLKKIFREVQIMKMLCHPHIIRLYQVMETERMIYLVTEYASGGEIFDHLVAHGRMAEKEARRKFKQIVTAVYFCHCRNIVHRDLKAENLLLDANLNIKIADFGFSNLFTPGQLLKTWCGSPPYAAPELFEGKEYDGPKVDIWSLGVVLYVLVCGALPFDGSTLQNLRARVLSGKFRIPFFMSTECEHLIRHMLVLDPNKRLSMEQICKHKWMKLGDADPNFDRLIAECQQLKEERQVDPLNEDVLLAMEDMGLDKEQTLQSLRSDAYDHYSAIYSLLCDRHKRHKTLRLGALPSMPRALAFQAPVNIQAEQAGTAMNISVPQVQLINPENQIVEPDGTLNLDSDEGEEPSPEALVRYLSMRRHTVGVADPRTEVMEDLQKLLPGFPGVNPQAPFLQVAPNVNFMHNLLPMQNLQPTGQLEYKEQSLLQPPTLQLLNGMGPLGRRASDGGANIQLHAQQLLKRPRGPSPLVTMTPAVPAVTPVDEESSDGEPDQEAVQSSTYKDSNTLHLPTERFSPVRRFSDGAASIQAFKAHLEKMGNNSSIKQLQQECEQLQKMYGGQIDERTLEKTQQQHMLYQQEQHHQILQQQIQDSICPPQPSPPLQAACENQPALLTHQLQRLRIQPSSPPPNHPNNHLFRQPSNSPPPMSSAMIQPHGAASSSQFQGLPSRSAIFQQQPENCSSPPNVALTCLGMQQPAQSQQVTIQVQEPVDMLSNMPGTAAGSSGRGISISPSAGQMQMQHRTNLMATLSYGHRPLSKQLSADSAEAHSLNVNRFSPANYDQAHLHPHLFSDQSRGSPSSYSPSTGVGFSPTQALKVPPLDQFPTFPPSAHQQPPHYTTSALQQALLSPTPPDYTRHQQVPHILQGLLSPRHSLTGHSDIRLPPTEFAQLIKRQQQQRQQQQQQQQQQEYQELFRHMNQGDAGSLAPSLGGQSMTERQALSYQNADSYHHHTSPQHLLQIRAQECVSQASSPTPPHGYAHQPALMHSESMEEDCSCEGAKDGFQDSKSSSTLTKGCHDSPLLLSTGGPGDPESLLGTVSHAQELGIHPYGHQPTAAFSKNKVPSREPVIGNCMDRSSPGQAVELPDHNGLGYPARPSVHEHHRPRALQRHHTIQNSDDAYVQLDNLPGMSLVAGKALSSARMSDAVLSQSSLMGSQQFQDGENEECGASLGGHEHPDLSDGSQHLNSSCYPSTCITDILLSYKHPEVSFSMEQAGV
# Chain of UniProt P29320 (whole entry, looked up): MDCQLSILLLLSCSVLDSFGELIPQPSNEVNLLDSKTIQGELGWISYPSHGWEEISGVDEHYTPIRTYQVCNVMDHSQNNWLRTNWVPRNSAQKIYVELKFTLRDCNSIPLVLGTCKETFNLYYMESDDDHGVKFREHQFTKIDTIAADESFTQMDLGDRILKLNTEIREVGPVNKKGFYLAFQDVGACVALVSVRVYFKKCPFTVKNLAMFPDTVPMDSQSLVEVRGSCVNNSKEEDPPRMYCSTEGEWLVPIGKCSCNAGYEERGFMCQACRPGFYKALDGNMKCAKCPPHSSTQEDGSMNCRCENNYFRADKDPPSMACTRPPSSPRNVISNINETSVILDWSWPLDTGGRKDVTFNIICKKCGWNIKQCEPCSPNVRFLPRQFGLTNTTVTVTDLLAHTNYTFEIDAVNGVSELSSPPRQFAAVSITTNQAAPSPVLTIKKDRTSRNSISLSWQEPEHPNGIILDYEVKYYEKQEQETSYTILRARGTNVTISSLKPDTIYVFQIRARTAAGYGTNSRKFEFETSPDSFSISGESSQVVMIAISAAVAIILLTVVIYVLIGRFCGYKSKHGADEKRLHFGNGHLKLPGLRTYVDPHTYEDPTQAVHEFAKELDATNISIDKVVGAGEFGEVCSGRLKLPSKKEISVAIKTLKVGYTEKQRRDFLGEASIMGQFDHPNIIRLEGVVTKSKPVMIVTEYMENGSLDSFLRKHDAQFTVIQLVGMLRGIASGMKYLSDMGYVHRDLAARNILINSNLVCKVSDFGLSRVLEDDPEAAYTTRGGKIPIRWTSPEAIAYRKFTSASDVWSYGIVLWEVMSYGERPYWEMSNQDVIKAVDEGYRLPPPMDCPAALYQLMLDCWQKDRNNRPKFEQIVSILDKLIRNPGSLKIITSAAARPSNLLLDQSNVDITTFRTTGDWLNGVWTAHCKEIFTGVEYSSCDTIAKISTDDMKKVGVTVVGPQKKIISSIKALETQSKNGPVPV

# Sample 1
# Compound: Cc1cncc2cccc(S(=O)(=O)N3CCCN(C(=O)CN)C[C@@H]3C)c12
# Read-out: enzyme activity
# Mode: inhibitor
# Tested at: 0.5 µM
# Reference: control
target,remaining activity
"cAMP-dependent protein kinase catalytic subunit alpha (PRKACA, Homo sapiens, UniProt P17612)",99.5%
"Mitogen-activated protein kinase 9 (MAPK9, Homo sapiens, UniProt P45984)",106%
"Death-associated protein kinase 2 (DAPK2, Homo sapiens, UniProt Q9UIK4)",103%
"Cyclin-dependent kinase 5, with p25 (CDK5, Homo sapiens, UniProt Q00535)",94.1%
"cGMP-dependent protein kinase 1, isoform beta (PRKG1, Homo sapiens, UniProt Q13976)",85%
"Inhibitor of nuclear factor kappa-B kinase subunit beta (IKBKB, Homo sapiens, UniProt O14920)",109%
"Serine/threonine-protein kinase Chk2 (CHEK2, Homo sapiens, UniProt O96017)",96.2%

# Sample 2
# Structure (SMILES): CC(C)(O)c1cncc(-c2nc3ccc(F)cc3n2C2CC2)c1
# Method: competition with immobilised ligand
# Tested at: 1 µM
target,read-out,remaining binding [%]
"Proto-oncogene tyrosine-protein kinase receptor Ret (RET, Homo sapiens, UniProt P07949, V804L)",cell-free assay,100
"Calcium/calmodulin-dependent protein kinase kinase 1 (CAMKK1, Homo sapiens, UniProt Q8N5S9)",cell-free assay,100
"MAP/microtubule affinity-regulating kinase 3 (MARK3, Homo sapiens, UniProt P27448)",cell-free assay,100
"Tyrosine-protein kinase ABL1, phosphorylated (ABL1, Homo sapiens, UniProt P00519, E255K)",binding,100
"Myosin-IIIa (MYO3A, Homo sapiens, UniProt Q8NEV4)",cell-free assay,100
"Serine/threonine-protein kinase SIK3 (SIK3, Homo sapiens, UniProt Q9Y2K2)",cell-free assay,97
"Mitogen-activated protein kinase 10 (MAPK10, Homo sapiens, UniProt P53779)",cell-free assay,100
"Ephrin type-A receptor 3 (EPHA3, Homo sapiens, UniProt P29320)",cell-free assay,100
"Serine/threonine-protein kinase MARK2 (MARK2, Homo sapiens, UniProt Q7KZI7)",cell-free assay,100
"Tyrosine-protein kinase CSK (CSK, Homo sapiens, UniProt P41240)",cell-free assay,100
"Serine/threonine-protein kinase Nek9 (NEK9, Homo sapiens, UniProt Q8TD19)",cell-free assay,100
"Peripheral plasma membrane protein CASK (CASK, Homo sapiens, UniProt O14936)",cell-free assay,89
"Macrophage-stimulating protein receptor (MST1R, Homo sapiens, UniProt Q04912)",cell-free assay,100
"Fibroblast growth factor receptor 3 (FGFR3, Homo sapiens, UniProt P22607, G697C)",cell-free assay,100
"Serine/threonine-protein kinase mTOR (MTOR, Homo sapiens, UniProt P42345)",cell-free assay,96

# Sample 3
# SMILES: CC(C)n1cnc(-c2ccc(F)cc2)c1-c1ncc(C(=O)Nc2ccc(N3CCN(C)CC3)cc2)[nH]1
# Method: phase 2a clinical trial
# Host: idiopathic pulmonary fibrosis patients
refers to,dose,notes,reference,patients with TEAEs
reproductive and breast disorders,60 mg once daily,grade 1 maximum intensity,,0%
reproductive and breast disorders,dose not given,"grade 4, all drug arms",,0%
neoplasms (SOC),dose not given,"grade 4, all drug arms",,0%
reproductive and breast disorders,dose not given,"grade 3, all drug arms",,0%
gamma-glutamyltransferase increased,dose not given,"grade 2, all drug arms",patients,1%
infections and infestations,30 mg once daily,grade 2 maximum intensity,patients,3%

# Mixed results
Compound,target or system,method,cell line,tested at,time,reference,enzyme activity
O=C(COc1ccc(Cl)cc1)NC1CCC(NC(=O)COc2ccc(Cl)cc2)CC1 (stereo not drawn),alpha-galactosidase (human),,healthy dermal fibroblasts,concentration not given,,DMSO,125% and 133% and 109% and 115% and 122%
Ic1ccc(Nc2nc(NCCN3CCOCC3)nc(N3CCOCC3)n2)cc1,L444P/L444P Gaucher fibroblasts,4-MUG hydrolysis in lysate,,0.5 µM,72 h,vehicle,113% and 114% and 120% and 111% and 118%
